Assay results from different studies.
Protocols differ between the studies behind these lines. ± gives the spread as reported.

`COc1ccc([C@@H](O)c2cc(-c3ncnc4cc(N5CCOCC5)ccc34)c(F)cc2Cl)nn1` — result for “vascular disorders incidence”: 2% (patients, advanced solid tumours; oral, 300 mg twice daily, treatment-emergent, with: avelumab; relative to: patients).
For `COC[C@@]12CC[C@H](OC)[C@]34C(C([C@H](OC)[C@H]13)[C@]1(OC(C)=O)[C@H]3[C@@H](OC(=O)c5ccccc5)[C@](O)(C[C@H]34)[C@@H](OC)[C@@H]1O)N(C)C2`, the MRT(0-t) was 5.34 ± 0.784 h (Sprague-Dawley rat, plasma; oral, dose not given, with H in PCW extract).
`CC1(C)[C@H](C(=O)O[C@H](C#N)c2cccc(Oc3ccccc3)c2)[C@@H]1C=C(Br)Br` — result for “enzyme contribution to clearance”: 0.54% (refers to: CYP2C19; human, age 5 years, recombinant human CYP2C19; 0.1 µM).
The creatinine of `COc1ccc2nc3cc(Cl)ccc3c(Nc3cc(CN4CCCC4)c(O)c(CN4CCCC4)c3)c2n1` is reported as 24.4 µmol/L (mouse, blood; oral, 57 mg/kg, tolerability, mean).
For `Brc1ccc(Oc2cc(Br)c(Br)cc2Br)c(Br)c1`, “milk fat partition ratio” read 250 (cow whole milk; 200 nM; relative to: milk fat over skim milk).
`Cn1c(-c2ccc(C(N)=O)cc2F)nnc1C(C)(C)Oc1c(F)cc(Cl)cc1F`: “vessel puncture site pain” 33.3% (human; oral, 30 mg, single ascending dose).
`NCCCS(=O)(=O)O` gave a plasma concentration of 281 ng/mL (human; oral, 265 mg twice daily, 8 h post-dose, week 65).
`COc1ccc([C@@H]2CC(=O)c3c(O)cc(O)cc3O2)cc1O`: “urinary excreted amount, total” 2250 ± 1160 ng (male Sprague-Dawley rat, obese; oral, 100 mg/kg of neohesperidin, 24 to 36 h, after β-glucuronidase/sulfatase hydrolysis).
`C[C@H](N)Cn1ncc2ccc3c(c21)CCCO3.Cl` gave a distribution coefficient of 4.39 (1-octanol/phosphate buffer; pH 7.4).
With `CCc1ccc(CC/C=C/c2ccc3c(c2)C(=O)CC3)cc1` the potassium was 4.28 mM (Sprague-Dawley rat, female, serum; oral, 30 mg/kg/day, 14 days).
`CC(=O)c1c(C)c2cnc(Nc3ccc(C4CCN(CCS(C)(=O)=O)CC4)cn3)nc2n(C2CCCC2)c1=O` gave a Vss of 332 to 3190 L (human, plasma; oral, dose not given, steady state, continuous dosing, range over doses).
For `CCN1[C@@H](C(=O)NC23CCC(C(=O)O)(CC2)CC3)[C@H](c2cccc(Cl)c2F)[C@]2(C(=O)Nc3cc(Cl)ccc32)C12CCCCC2`, the Hypercholesterolemia incidence was 4.8% (patients with advanced solid tumours; oral, dose not given, all doses).
Under “drug-related abnormal liver function”, `C[C@@H](NC(=O)N1C(=O)[C@H](Cc2ccnc(N)c2)[C@H]1C(=O)O)C1CCCCC1` is recorded as 0% (healthy adult Chinese volunteers; continuous intravenous infusion, 1.5 mg/kg/h, 5-day infusion, CTCAE 5.0 grading).
The tissue uptake of `CC[C@H](C)[C@H](NC(=O)[C@H](Cc1ccccc1)NC(=O)[C@H](CCC(=O)O)NC(=O)[C@H](CCCNC(=N)N)NC(=O)[C@H](C)NC(=O)[C@H](C)NC(=O)[C@H](CCC(N)=O)NC(=O)[C@H](CCC(=O)O)NC(=O)[C@H](CCC(=O)O)NC(=O)[C@H](CC(C)C)NC(=O)[C@H](Cc1ccc(O)cc1)NC(=O)[C@H](CO)NC(=O)[C@H](CO)NC(=O)[C@@H](NC(=O)[C@H](CC(=O)O)NC(=O)[C@H](CO)NC(=O)[C@@H](NC(=O)[C@H](Cc1ccccc1)NC(=O)[C@@H](NC(=O)CNC(=O)[C@H](CCC(=O)O)NC(=O)[C@H](C)NC(=O)CCc1cnc[nH]1)[C@@H](C)O)[C@@H](C)O)C(C)C)C(=O)N[C@@H](C)C(=O)N[C@@H](Cc1c[nH]c2ccccc12)C(=O)N[C@@H](CC(C)C)C(=O)N[C@H](C(=O)N[C@@H](CCCNC(=N)N)C(=O)NCC(=O)N[C@@H](CCCNC(=N)N)C(=O)N[C@@H](CCCCNC(=O)COCCOCCNC(=O)COCCOCCNC(=O)CC[C@H](NC(=O)CCCCCCCCCCCCCCCCC(=O)O)C(=O)O)C(=O)NCC(=O)NCC(=O)N[C@@H](CO)C(=O)N[C@@H](CCSC)C(=O)N[C@H](C(=O)N[C@@H](CCCCNc1c(NCCCCCN(O)C(=O)CCC(=O)NCCCCCN(O)C(=O)CCC(=O)NCCCCCN(O)C(C)=O)c(=O)c1=O)C(=O)O)C(C)C)C(C)C` [zirconium-89 labelled] is reported as 0.046 %ID/g (ex vivo gamma counting; male Sprague-Dawley rats, muscle; intravenous, 1 nmol, 72 h, mean of 3 animals).
For `CC(C)[C@@H]1NC(=O)CNC(=O)[C@H](CC(N)=O)NC(=O)[C@H](CCCNC(=N)N)NC(=O)[C@H](Cc2ccc(O)cc2)NC(=O)[C@H](C(C)C)NC(=O)[C@@H](NC(=O)[C@@H](NC(=O)[C@H](CC(N)=O)NC(=O)[C@H](Cc2c[nH]c3ccccc23)NC(=O)[C@H](C)NC(=O)[C@H](Cc2ccccc2)NC(=O)CN)C(C)C)CSSC[C@@H](C(=O)N[C@@H](Cc2cnc[nH]2)C(=O)N[C@@H](CCCNC(=N)N)C(=O)N[C@@H](CCCNC(=N)N)C(=O)N[C@@H](C)C(=O)N[C@@H](CC(N)=O)C(N)=O)NC(=O)[C@H](C(C)C)NC(=O)[C@H](CCCNC(=N)N)NC1=O`, “group interaction score” read 0 (ICR mouse; ip, 5 mg/kg; direction not given).
`COc1cc(N2CCC(N3CCN(C)CC3)CC2)ccc1Nc1ncnc(Nc2ccccc2S(=O)(=O)C(C)C)n1`: “treatment-emergent adverse events” 5 number (percent) (refers to: Headache; Japanese patients with solid tumours; oral, dose not given, all grades).
For `N[C@@H]1c2ccccc2OC12CCN(c1cnc3c(N4CCCc5ncccc54)n[nH]c3n1)CC2`, “incidence grade ≥3 TEAE” read 50% (patients advanced metastatic solid tumours; oral, dose not given, dose escalation total).
For `CO[C@H]1C[C@@H]2CC[C@@H](C)[C@@](O)(O2)C(=O)C(=O)N2CCCC[C@H]2C(=O)O[C@H]([C@H](C)C[C@@H]2CC[C@@H](OC(=O)NCCOCCOCCOCCOCCOCCOCCOCCOCCC(=O)N3CCc4cc(Cn5nc(-c6ccc7oc(N)nc7c6)c6c(N)ncnc65)ccc4C3)[C@H](OC)C2)C[C@@H](O)[C@H](C)/C=C(\C)[C@@H](O)[C@@H](OC)C(=O)[C@H](C)C[C@H](C)/C=C/C=C/C=C/1C`, “any TEAE incidence” read 100% (phase 1 dose escalation; advanced solid tumour patients; intravenous, 8 mg weekly, any grade).
For `CC1=C(O)C(=O)C=C2C1=CC=C1[C@@]2(C)CC[C@@]2(C)[C@@H]3C[C@](C)(C(=O)O)CC[C@]3(C)CC[C@]12C`, “time to peak brain concentration” read 4 h (Sprague-Dawley rat male, neocortex; intraperitoneal, 4 mg/kg).
`O=S(=O)(Nc1ccccc1)c1ccc(NC(=S)Nc2ccccc2)cc1` — result for “blood chemistry level”: 9.77 mg/dL (refers to: Ca; female mouse, blood; oral, 20 mg/kg daily, 14 days).
With `C1=Cc2nc1cc1ccc([n-]1)c(C1CC1)c1nc(cc3ccc([n-]3)c2C2CC2)C=C1.CC(=O)[O-].[Mn+3]` the plasma concentration was 160 ng/mL (LC-MS/MS; Sprague-Dawley rat, plasma; oral gavage, dose not given, 60 min, individual rat Rat2).
Under “cis isomer at photostationary state”, `Cc1cccc(N=Nc2ccc3[nH]cc(CCN(C)C)c3c2)c1` is recorded as 80% (light irradiation; solution; with: light 385 nm).
`[O-][S+]1CCc2nc(N3CCC(c4ncc(Cl)cn4)CC3)nc(NC3(CO)CCC3)c21` (stereo not drawn) — result for “adverse event incidence”: 0% (refers to: Dizziness; healthy male humans; multiple doses, all groups).
`CN[C@@H](C)C(=O)N[C@H]1CN(S(=O)(=O)c2cccc(S(=O)(=O)N3CC[C@H]4CC[C@@H](C(=O)NC(c5ccccc5)c5ccccc5)N4C(=O)[C@@H](NC(=O)[C@H](C)NC)C3)c2)CC[C@H]2CC[C@@H](C(=O)NC(c3ccccc3)c3ccccc3)N2C1=O`: “treatment-related AST elevation incidence” 0% (patients with advanced solid tumours; 20 mg, phase I monotherapy).
Under “treatment-related adverse events”, `CCCCCCCCCCCCCCCC(=O)N[C@@H](CCC(=O)NCCCC[C@H](NC(=O)[C@H](CC(=O)O)NC(=O)[C@H](CO)NC(=O)[C@@H](NC(=O)[C@H](Cc1ccccc1)NC(=O)[C@@H](NC(=O)CNC(=O)[C@H](CCC(N)=O)NC(=O)[C@H](CO)NC(=O)[C@@H](N)Cc1c[nH]cn1)[C@@H](C)O)[C@@H](C)O)C(=O)N[C@@H](CO)C(=O)N[C@@H](CCC(=O)O)C(=O)N[C@@H](Cc1ccc(O)cc1)C(=O)N[C@@H](CC(C)C)C(=O)N[C@@H](CC(=O)O)C(=O)N[C@@H](CO)C(=O)N[C@@H](CCC(=O)O)C(=O)N[C@@H](CCCNC(=N)N)C(=O)N[C@@H](C)C(=O)N[C@@H](CCCNC(=N)N)C(=O)N[C@@H](CC(=O)O)C(=O)N[C@@H](Cc1ccccc1)C(=O)N[C@H](C(=O)N[C@@H](C)C(=O)N[C@@H](Cc1c[nH]c2ccccc12)C(=O)N[C@@H](CC(C)C)C(=O)N[C@@H](CCC(=O)O)C(=O)N[C@@H](C)C(=O)NCC(=O)NCC(=O)O)C(C)C)C(=O)O` is recorded as 12.5% (refers to: Tachycardia; humans CrCl 20 to 30 mL/min; subcutaneous, 100 µg single dose).
`CC(C)n1c(C2CCNCC2)nc2c([N+](=O)[O-])c(Br)c(Br)cc21` — result for “AE of any grade”: 40% (patients with AML; 125 mg).
`COc1cc2c(Oc3ccc4[nH]c(C)cc4c3F)ccnc2cc1OCC1(N)CC1`: “bone pain incidence” 0% (paediatric recurrent refractory sarcoma; 12 mg).
`O=C(Nc1ccccc1)C1CCN(C(=O)Oc2cccnc2)CC1`: “change in internal perception score” 0 (psychotropic effects VAS; healthy women; 100 mg; relative to: pre-dose baseline, direction not given).
For `CCCCCCC#Cc1cncc(-c2nnc(SCc3ccc([N+](=O)[O-])o3)n2C2CC2)c1`, the t1/2 was 3.97 h (mouse plasma; plasma stability).
Under “peripheral oedema incidence”, `Cn1ncc(-c2nc(N[C@H]3CC[C@H](N)CC3)ncc2Cl)c1CC1CC1` is recorded as 8% (phase I dose escalation; human patients; any-grade TEAE; relative to: patients).
The recovery of `CC(C)CC(=O)OC[C@H]1O[C@@](C#N)(c2ccc3c(N)ncnn23)[C@H](O)[C@@H]1O` is reported as 93.6% (plasma protein binding; human plasma; 90 µM, time not given).
`COc1ccc(C(C)(C)c2cnc(SCCOc3ccc(-n4ccnc4)cc3)n2-c2ccc(F)cc2)cc1OC` has an EC50 of 5.3 µM (CYP1A2 induction, inducer, refers to: CYP1A2 mRNA; sandwich-cultured human hepatocytes; 48 h).
Under “patients with adverse event”, `CN1CC[C@@H](c2c(O)cc(O)c3c(=O)cc(-c4ccc(C(F)(F)F)cc4Cl)oc23)[C@@H]1CO` is recorded as 0% (refers to: urinary incontinence; B-cell malignancies; oral, 150 mg, grade 3 to 4, intermittent dosing).
`O=C(O)CCCOc1ccc(F)cc1-c1cc(-c2ccccc2C(F)(F)F)n(-c2ccccc2)n1`: “serum enzyme activity” 25.2 ± 3.3 U/L (refers to: ALT; Crl:CD(SD) rats, female, serum; iv, 25 µg/kg, 1 day).
`O=C1Nc2cc3[nH]nc(-c4ccncc4)c3cc2CN1Cc1ccccc1`: “patients with acneiform dermatitis” 0% (CTCAE v4.03; advanced solid tumour patients; intravenous, 3.6 mg/kg, schedules 1/2).
`CC[C@H](C)CCCCC(=O)N[C@@H](CCN)C(=O)N[C@H](C(=O)N[C@@H](CCN)C(=O)N[C@H]1CCNC(=O)[C@H]([C@@H](C)O)NC(=O)[C@H](CCN)NC(=O)[C@H](CCN)NC(=O)[C@H](CC(C)C)NC(=O)[C@@H](Cc2ccccc2)NC(=O)[C@H](CCN)NC1=O)[C@@H](C)O` — result for “Cmax steady state”: 6600 ng/mL (critically ill patients, non-AKI, plasma; intravenous, 150 mg/day, median).
For `Nc1nc2cc(-c3ccc4ncc(C(=O)N5CCOCC5)n4c3)ccc2o1`, “grade ≥3 ALT/AST elevation” read 15% (advanced solid tumour patients; dose not given; relative to: patients).
For `C[C@]1(CO)Cc2ncn(-c3ccc(C#N)c(Cl)c3)c2C(=O)O1`, “AUC(0-inf) adjusted geometric mean” read 2.33 µM·h (human, plasma; oral, 10 mg single dose, fasted).
Under “treatment-emergent adverse events”, `CC(C)(O)c1cc(Nc2cc(Oc3cn(C4CC4)nc3C3CCOCC3)ccn2)ccn1` is recorded as 23% (Fatigue; advanced cancer patients, grade 4 glioma expansion; oral, 50 mg twice daily, all causality any grade).

Repeated from above:
Under “peripheral oedema incidence”, `Cn1ncc(-c2nc(N[C@H]3CC[C@H](N)CC3)ncc2Cl)c1CC1CC1` is recorded as 8% (phase I dose escalation; human patients; any-grade TEAE; relative to: patients).
Under “treatment-related adverse events”, `CCCCCCCCCCCCCCCC(=O)N[C@@H](CCC(=O)NCCCC[C@H](NC(=O)[C@H](CC(=O)O)NC(=O)[C@H](CO)NC(=O)[C@@H](NC(=O)[C@H](Cc1ccccc1)NC(=O)[C@@H](NC(=O)CNC(=O)[C@H](CCC(N)=O)NC(=O)[C@H](CO)NC(=O)[C@@H](N)Cc1c[nH]cn1)[C@@H](C)O)[C@@H](C)O)C(=O)N[C@@H](CO)C(=O)N[C@@H](CCC(=O)O)C(=O)N[C@@H](Cc1ccc(O)cc1)C(=O)N[C@@H](CC(C)C)C(=O)N[C@@H](CC(=O)O)C(=O)N[C@@H](CO)C(=O)N[C@@H](CCC(=O)O)C(=O)N[C@@H](CCCNC(=N)N)C(=O)N[C@@H](C)C(=O)N[C@@H](CCCNC(=N)N)C(=O)N[C@@H](CC(=O)O)C(=O)N[C@@H](Cc1ccccc1)C(=O)N[C@H](C(=O)N[C@@H](C)C(=O)N[C@@H](Cc1c[nH]c2ccccc12)C(=O)N[C@@H](CC(C)C)C(=O)N[C@@H](CCC(=O)O)C(=O)N[C@@H](C)C(=O)NCC(=O)NCC(=O)O)C(C)C)C(=O)O` is recorded as 12.5% (refers to: Tachycardia; humans CrCl 20 to 30 mL/min; subcutaneous, 100 µg single dose).
